Experimental data gathered from unrelated publications.
Every numbered part comes from another study and shows a few of its results, in no order.

Series 1
Target: Histone acetyltransferase KAT6A, winged helix 1, GST fusion (KAT6A, Homo sapiens, UniProt Q92794, residues 1-85)
Technique: protein binding microarray
Molecule type: double-stranded DNA, one strand shown
Matrix: in vitro
Concentration: not given
Notes: 8-mer, flanks averaged, mean of 2 arrays, mostly near background
Relative to: not given
Reading: higher = stronger binding
Target sequence (chain): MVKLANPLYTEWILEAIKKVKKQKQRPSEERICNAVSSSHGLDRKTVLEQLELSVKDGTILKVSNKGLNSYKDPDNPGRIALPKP
Strand | E-score
GACGTTAC | 0.0455
CCCACTGA | -0.314
GACCTTCC | 0.0397
ACATAAAT | -0.0152

Series 2
Target: Interferon regulatory factor 7, full length, phosphomimetic (IRF7, Homo sapiens, UniProt Q92985, residues 1-503, S101K/S471D/S472D/S475D/S476D/S477D/S483D/S484D/S487D)
Chain of UniProt Q92985 (whole entry, unmodified, looked up): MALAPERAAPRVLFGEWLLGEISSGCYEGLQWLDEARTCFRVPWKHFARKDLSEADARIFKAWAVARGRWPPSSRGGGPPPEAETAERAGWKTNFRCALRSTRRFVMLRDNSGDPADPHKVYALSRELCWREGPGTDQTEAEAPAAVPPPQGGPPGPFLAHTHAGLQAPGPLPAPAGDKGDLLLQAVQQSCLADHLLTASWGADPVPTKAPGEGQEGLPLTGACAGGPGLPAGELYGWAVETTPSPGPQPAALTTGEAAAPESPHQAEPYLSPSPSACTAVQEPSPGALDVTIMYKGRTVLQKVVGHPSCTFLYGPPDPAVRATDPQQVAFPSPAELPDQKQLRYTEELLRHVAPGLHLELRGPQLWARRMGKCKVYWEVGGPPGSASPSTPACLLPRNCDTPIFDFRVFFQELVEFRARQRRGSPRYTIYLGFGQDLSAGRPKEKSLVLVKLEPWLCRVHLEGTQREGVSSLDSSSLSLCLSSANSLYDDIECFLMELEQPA
Technique: protein-binding microarray
Molecule type: double-stranded DNA, one strand shown
Matrix: in vitro
Concentration: 250 nM
Notes: 60-bp whole probe
Added: salmon DNA 0.4 mg/ml
Relative to: random background probes
Reading: higher = stronger binding
Strand | log fluorescence [z-score]
GCCTAGCACTTAGCACTGGGGTATCGATTAGTGCTAGTCTTGATTCGCTTGACGCTGCTG | -0.241
GCCTAGCACGACGGACCGGGTATCGGGACGTGCTAGGTCTTGATTCGCTTGACGCTGCTG | 0.0715
GCCTAGCACGACCGTTTCCTTTCCCTGACGTGCTAGGTCTTGATTCGCTTGACGCTGCTG | 3.23
GCCTAGCACGACGATTTCGGTTTTCGAGACGTGCTAGTCTTGATTCGCTTGACGCTGCTG | 4.57

Series 3
Target: Sal-like protein 4, full length isoform B (SALL4, Homo sapiens, UniProt Q9UJQ4-2, residues 1-616)
Technique: universal PBM
Molecule type: double-stranded DNA, one strand shown
Matrix: in vitro
Concentration: not given
Notes: 8-mer, flanks averaged, mean of replicates
Reading: higher = stronger binding
Strand | E-score
ATTCGCCA | -0.0418
ATCTTTTC | 0.135
AGGGCTAG | -0.0625
ATGAATCA | 0.219
CTGTTTAC | 0.208
GAATAAGC | 0.0481

Other studies, line by line
Substance | target | test | test system | setting | how to read | endpoint | result
PhoQ, residues 284 288 289 292 302 303 SLSVQF | PhoP, residues 12 14 15 18 19 VHSCL (Escherichia coli, UniProt P23836) | Sort-seq, refers to: YFP reporter | E. coli | PhoQ-PhoP variant library, added: 10 µM Mg2+ | relative to: high Mg2+ state, higher = stronger signaling | fold induction | 5.09

Excerpt of the above (series 3):
Strand | E-score
AGGGCTAG | -0.0625
ATCTTTTC | 0.135
